Values quoted from earlier work as cited in several papers.
Compare with care: the assays were run in different laboratories. pKi: −log10 of the molar value.

CN1CC[C@]23c4c5ccc(O)c4O[C@H]2[C@@H](O)CC[C@H]3[C@H]1C5 — logD (pH 7.4): -0.47
CO[C@H]1C[C@@H]2CC[C@@H](C)[C@@](O)(O2)C(=O)C(=O)N2CCCC[C@H]2C(=O)O[C@H]([C@H](C)C[C@@H]2CC[C@@H](OC(=O)NCCOCCOCCOCCOCCOCCOCCOCCOCCC(=O)N3CCc4cc(Cn5nc(-c6ccc7oc(N)nc7c6)c6c(N)ncnc65)ccc4C3)[C@H](OC)C2)C[C@@H](O)[C@H](C)/C=C(\C)[C@@H](O)[C@@H](OC)C(=O)[C@H](C)C[C@H](C)/C=C/C=C/C=C/1C — selectivity ratio (mTORC1 and mTORC2; cell-based; reference: mTORC1 over mTORC2): ~40 fold
COc1ccc(C(=O)c2c(C)n(CCN3CCOCC3)c3cc(I)ccc23)cc1 — pKi (cannabinoid receptor CB2; binding): 7.03 to 7.51
COP(=S)(OC)Oc1ccc(SC)c(C)c1 — logD (pH 7.4): 3.8
COc1ccc2c3c1O[C@H]1[C@@H](O)CC[C@H]4[C@@H](C2)N(C)CC[C@@]341 — logD (pH 7.4): -0.34
OCCN1CCN(CCC=C2c3ccccc3Sc3ccc(C(F)(F)F)cc32)CC1 — log2 fold change (MCF7; microarray, item: STX3 mRNA; concentration not given; reference: DMSO): 1.29
CCOC(=O)[C@@H]1CSCC(=O)N[C@H](CC)C(=O)N(C)[C@@H](C)C(=O)N[C@@H](CC(C)C)C(=O)N(C)[C@H](C)C(=O)N(CC(C)C)CC(=O)N[C@H](CC(C)C)C(=O)N(C)[C@@H](C)C(=O)N[C@@H](CC(C)C)C(=O)N1C — log permeability (Pe) (MDCK): -5.19
ClC1=C(Cl)C2(Cl)C3C4CC(C5OC45)C3C1(Cl)C2(Cl)Cl (centres unmarked) — logD (pH 7.4): 4.94
